Experimental data pooled from the literature.
Compare with care: the assays were run in different laboratories. Numbers after ± are the reported error.

| SMILES | test | test system | setting | scale | endpoint | result |
| --- | --- | --- | --- | --- | --- | --- |
| Cc1cc(Nc2ccc(S(F)(F)(F)(F)F)cc2)n2nc(C(C)(F)F)nc2n1 | – | Plasmodium vivax malaria patients | oral, 800 mg | – | adverse event Asthenia | 0% |
| Cc1c(-c2ccc(N3CCc4cccc(C(=O)Nc5nc6ccccc6s5)c4C3)nc2C(=O)O)cnn1CC12CC3(C)CC(C)(C1)CC(OCCNCC[C@H](O)CO)(C3)C2 | – | beagle dog, anaesthetised | intravenous infusion, 0.1 mg/kg/min, 30 min | baseline: baseline | mean arterial pressure change | -2 mmHg |
| CCN1/C(=C/C(C)=O)Sc2ccc(F)cc21 | – | cynomolgus monkey | oral, 10 mg/kg, 6 h post-dose | – | heart rate | 110 ± 32 beats/min |
| CN(C(=O)n1cnc(-c2ccc[n+]([O-])c2)c1)[C@H]1CC[C@H](O)CC1 | – | rat, hippocampus | oral, 10 mg/kg daily for 5 days, 48 h | – | tissue concentration | 13.3 ± 0.4 ng/g |
| O=C(O)CCC(=O)O.[2H]C([2H])([2H])Oc1cc(C)c2[nH]ccc2c1CN1CC[C@@H](C2CC2)C[C@H]1c1ccc(C(=O)O)cc1 | multiple ascending dose | healthy Chinese subjects | 50 mg twice daily | – | subjects with muscle pain TEAE | 0% |
| O=C([O-])CN1CCN(CC(=O)[O-])CCN([C@H](CO)[C@H](O)CO)CCN(CC(=O)[O-])CC1.[Gd+3] (racemic) | LC-ICP-MS | human plasma | pH 7.4, 37 °C | baseline: total Gd per day | Gd release | 0.008% |
| O=C(Cc1ccc2ccccc2c1)Nc1cc(C2CCC2)[nH]n1 | – | mouse plasma | 375 ng/mL, 8 h, ambient temperature, bench-top stability | – | accuracy | 94.5% |
| C/C(=N\c1ccc(O)cc1)c1cc2ccccc2n1C | – | processed rat plasma sample | 1000 ng/mL, 24 h, room temperature, autosampler tray | baseline: nominal | remaining compound | 98.8 ± 1.9% |
| NC[C@@]1(CC(=O)O)[C@@H]2CC[C@H]3C[C@@H]2[C@@H]1C3 | – | humans with mild renal impairment, plasma | dose not given | baseline: normal renal function | unbound AUC(0-inf) increase | 12.9% |
| Cc1ccc(C(=O)N(CCCN)C(c2nc3snc(C)c3c(=O)n2Cc2ccccc2)C(C)C)cc1 (stereo not drawn) | – | human patients | intravenous, 10 mg/day | – | grade ≥3 hypokalemia patients | 33% |
| CN1CCN(c2cccc3c2CCN(C(=O)/C=C/c2c(-n4cnnn4)ccc(Cl)c2F)[C@@H]3C(=O)Nc2ccc(C(=O)O)cc2)C(=O)C1 | – | healthy human subjects | intravenous infusion, 20 mg/h, 5 days | – | subjects with any adverse event | 12.5% |
| CNC(=O)c1cc(Oc2ccc(NC(=O)Nc3cc(C(C)(C)C)nn3-c3ccc4ncccc4c3)c(F)c2)ccn1 | refers to: worst grade 3 | human | oral, dose not given, cycles 1 and 2, High Cmax subgroup | – | patients with visual abnormality AE | 6% |
| O=C(COc1ccc(Cl)cc1)NC12CC(c3nnc([C@H]4C[C@@H](OC(F)(F)F)C4)o3)(C1)C2 | – | healthy human volunteers fasted, plasma | oral, 800 mg single dose, geometric mean | – | AUC | 685 µM·h |
| NC1(C(=O)N[C@@H](CCO)c2ccc(Cl)cc2)CCN(c2nc[nH]c3nccc2-3)CC1 | – | metastatic CRPC patients | 480 mg b.i.d., grade 3 to 4, treatment-related, together with: enzalutamide 160 mg daily | – | incidence of Hyper-glycaemia | 40% |
| CNCCOC12CC3(C)CC(C)(CC(Cn4ncc(-c5ccc(N6CCc7cccc(C(=O)Nc8nc9ccccc9s8)c7C6)nc5C(=O)O)c4C)(C3)C1)C2 | – | anaesthetised male beagle dogs | intravenous bolus, 0.03 mg/kg, 135 min | baseline: baseline | systemic vascular resistance change | 155% |
| CC(C)[C@H](C(=O)Nc1ccc(C(=O)NO)cc1)c1ccccc1 | – | whole blood | 1000 ng/mL, 0 h, 4 °C, stability on ice | – | accuracy | 100% |
| CC(C)n1c(Nc2cccnc2)nc2cnc(Nc3ccc(N4CCN(C)CC4)cc3)nc21 | refers to: urine leukocytes positive | healthy male subjects | oral, 100 mg, study, together with: itraconazole | – | subjects with adverse event | 0% |
| Cc1ccc([C@@H]2O[C@H](CO)[C@@H](O)[C@H](O)[C@H]2O)cc1Cc1ccc(-c2ccc(F)cc2)s1 | – | Japanese type 2 diabetes patients | 100 mg, day 4, 24 h urine collection | baseline: baseline | urinary magnesium excretion change | 13.2 mg |
| CCc1nc(C(N)=O)c(Nc2ccc(N3CCC(N4CCN(C)CC4)CC3)c(OC)c2)nc1NC1CCOCC1 | – | processed mouse plasma | 15 ng/mL, 24 h, 4 °C | – | autosampler stability accuracy | 94.9% |
| NC(=O)N1c2ccccc2C=Cc2ccccc21 | refers to: skin disorders (SOC) | human male | oral, dose not given, CTCAE on-treatment AEs | – | adverse events incidence | 13% |
| c1ccc2c(c1)-c1cccc3c1c-2cc1ccccc13 | – | polyethylene-water partitioning | PAH compilation | baseline: maximum over minimum K | literature range factor | 5 |
| Cc1cc([C@H]2C[C@H]3[C@@H](CF)SC(N)=N[C@@]3(c3ccc(F)cc3F)CO2)on1 | – | male 129/SVE wild-type mouse, plasma | subcutaneous, 100 mg/kg, 9 h | – | plasma concentration | 41 nM |
| COc1ccc(C[C@H](NC(=O)[C@H](C)NC(=O)CN2CCOCC2)C(=O)N[C@@H](Cc2ccccc2)C(=O)C2(C)CO2)cc1 (stereo in doubt) | – | BALB/c mouse | oral vs intravenous, 20 mg/kg | – | F | 23.8% |
| CNC(=O)c1ccc(-c2cnc3ncc(Cc4ccc5ncccc5c4)n3n2)cc1F | – | human, normal hepatic function, plasma | oral, 200 mg, adjusted geometric mean | – | unbound AUC(0-inf) | 183 ng·h/mL |
| CC[C@H](C)[C@H](NC(=O)CN)C(=O)N[C@@H](CC(C)C)C(=O)N[C@@H](C)C(=O)N[C@@H](C)C(=O)N[C@H](C(=O)N[C@@H](CCCCN)C(=O)N[C@@H](C)C(=O)N[C@H](C(=O)N[C@@H](C)C(=O)N[C@@H](CCCCN)C(=O)N[C@@H](C)C(=O)N[C@@H](C)C(=O)NCC(N)=O)[C@@H](C)CC)[C@@H](C)CC | circular dichroism | 10 mM SDS | 100 µM | – | helix content | 28% |
| CCCCC1=NC2(CCCC2)C(=O)N1Cc1ccc(-c2ccccc2S(=O)(=O)Nc2noc(C)c2C)c(COCC)c1 | – | healthy adult volunteers, plasma | oral, 1600 mg, single dose, fasted, crushed tablet | – | Tmax | 5 h |
| Cc1cc(C)c(CNC(=O)c2cc(Cl)c3c(c2C)O[C@@](C)([C@H]2CC[C@H](N(C)C)CC2)O3)c(=O)[nH]1 | refers to: Dyspnea | human patients | oral, 200 mg once daily, 1 day onset day 14 | – | patients with TEAE | 0% |

| SMILES | test | test system | setting | scale | endpoint | result |
| --- | --- | --- | --- | --- | --- | --- |
| FC(F)(F)c1ccc(CNc2ccc(Cc3c[nH]c4ncc(Cl)cc34)cn2)cn1 | refers to: periorbital oedema | human, advanced solid tumours, all patients | oral, 1000 mg/day, any grade | – | treatment-related adverse events | 20% |
| N#Cc1ccc2c(c1)[C@H]1CCCN(C(=O)c3ccc4[nH]cnc4c3)[C@H]1C2 | – | human males | 20 mg, day 15 | – | total testosterone level | 11 nmol/L |
| CCOC(=O)[C@H](CCc1ccccc1)N[C@@H](C)C(=O)N1[C@H](C(=O)O)C[C@H]2CCCC[C@@H]21 | – | processed human plasma | 30 pg/mL, 48 h, 4 °C | baseline: nominal | autosampler stability | 103 ± 9.5% |
| CCCCC[C@H](O)CC[C@@H]1[C@H]2Cc3cccc(OCC(=O)O)c3C[C@H]2C[C@H]1O | LC-MS/MS | Japanese PAH patients under 56.7 kg, plasma | inhaled, 54 µg | – | geometric mean half-life | 0.75 h |
| C[C@H]1CN(C(=O)CC#N)[C@]12CCN(c1ncnc3[nH]ccc13)C2 | – | healthy human | oral, 6 mg single | – | subjects with TEAEs | 25% |
| CCc1cc(C(=O)NC)c2nccc(N3CCc4c(cc(Cn5ccnc5)cc4-c4cn(C)nc4C(F)(F)F)C3=O)c2c1 | refers to: DBIL | Sprague Dawley rat | oral, 50 mg/kg once daily, 7 days | baseline: vehicle | change in clinical chemistry or haematology parameter | 0% |
| CNC(=O)c1ccc(-c2cnc3ncc(Cc4ccc5ncccc5c4)n3n2)cc1F | – | cancer patients | oral, dose not given, all grades dose escalation | – | abdominal distension incidence | 13% |
| COc1cc(Nc2ncc3c(n2)-c2ccc(Cl)cc2C(c2c(F)cccc2OC)=NC3)ccc1C(=O)O | – | cancer patients | oral, dose not given, all grades any attribution, together with: pembrolizumab | – | patients with lung infection | 4% |
| Cc1ccc(Sc2ccccc2N2CCNCC2)c(C)c1 | – | healthy adult men | oral, 10 mg single, 10 day | – | abdominal distension | 0% |
| C[C@@H]1COCCN1c1cc(C2([S@](C)(=N)=O)CC2)nc(-c2cc[nH]c3nccc2-3)n1 | – | Japanese advanced solid tumour patients | oral, 240 mg twice daily, any grade | – | Pruritus incidence | 16.7% |
| OCC1=C[C@@H](O)[C@@H]2C=CO[C@@H](O[C@@H]3O[C@H](CO)[C@@H](O)[C@H](O)[C@H]3O)[C@H]12 | three freeze-thaw cycles | rat plasma | 1000 ng/mL, -70 °C freeze | – | accuracy | 94.5% |
| C[C@@H](N)C1CCN(S(=O)(=O)c2cccc3cnccc23)CC1 | – | healthy volunteers | 75 mg, fasted | – | participants with epistaxis | 0% |
| COc1ccc2c(c1)CN(C(=O)CCN1CCC(Cc3ccccc3)CC1)CC[S@@+]2[O-] | telemetry | conscious male beagle dogs | intravenous, 8 mg/kg, 24 h | – | PQ interval | 87 ± 10 ms |
| Cc1c(C(=O)Nc2ccc(N3C[C@@H](C)O[C@@H](C)C3)nc2)cccc1-c1ccc(OC(F)(F)F)cc1 | PK model | mouse | oral, 40 mg/kg/day | – | plasma-to-tumour rate constant | 0.0076 h⁻¹ |
| Oc1ccc(Br)c2cccnc12 | – | oil/water | pH 5.4 | – | partition coefficient | 89.5 |
| Cc1c(Cl)c(C)[n+]([O-])c(Cl)c1-c1noc(-c2cc(O)c(O)c([N+](=O)[O-])c2)n1 | refers to: Belching | healthy Caucasian subjects | oral, 25 mg, 4 days | – | adverse drug reaction incidence | 0% |
| Cn1cc(-c2cn3nccc3c(-c3cnn([C@]4(CC#N)C[C@@H](C#N)C4)c3)n2)cn1 | – | human, urine | oral, 30 mg once daily, day 10, dosing interval geometric mean | – | amount excreted unchanged in urine | 0.2 mg |
| [18F]c1ccc(-c2ccc3c(c2)[nH]c2ccncc23)cn1 | microPET/CT imaging | B6SJL mouse, normal, brain | intravenous, 10 min | – | SUV | 1 ± 0.158 |
| COc1ccc2nc([S@@+]([O-])Cc3ncc(C)c(OC)c3C)[nH]c2c1 | – | human, dried blood spots | 10 mg omeprazole, median, together with: fluvoxamine | baseline: with fluvoxamine over alone | AUC ratio | 3 |
| O=C(O)C1=CO[C@@H](O[C@@H]2O[C@H](CO)[C@@H](O)[C@H](O)[C@H]2O)[C@@H]2C(CO)=CC[C@H]12 | post-procedure stability | rat plasma | 1000 ng/mL, 1 h, room temperature | – | accuracy | 98.2% |
| Cc1cc(NC2CCN(C(=O)OC3CCN(C(=O)/C=C/CN(C)C)C3)CC2)n2ncc(C(C)C)c2n1 (stereo not drawn) | Phase I dose escalation CTCAE v4.0, refers to: pain in extremity | patients with advanced solid tumours | dose not given, QD dosing any grade | – | patients with adverse event | 7% |
| Cn1cc(Nc2nccc(-c3ccc4c(c3)CN(C3COC3)CC[C@H]4NC(=O)c3cn(C(C)(C)C)nn3)n2)cn1 | – | human, whole blood | 150 mg twice daily, day 14 | baseline: pre-dose baseline | granulocyte count change | -7.69% |
| C[Si]1(C)O[Si](C)(C)O[Si](C)(C)O[Si](C)(C)O[Si](C)(C)O1 | – | – | 0.001 to 0.003 µg/L, 34.8 °C | – | log KAW | 3.85 |
| COC(=O)C1=CO[C@@H](O[C@@H]2O[C@H](CO)[C@@H](O)[C@H](O)[C@H]2O)[C@@H]2C(CO)=CC[C@H]12 | three freeze-thaw cycles | rat plasma | 200 ng/mL, -70 °C freeze | – | accuracy | 89.9% |
| C[C@@H](Oc1ccc(S(C)(=O)=O)cc1C(=O)N1C[C@@H]2C[C@]2(c2cc(C(F)(F)F)on2)C1)C(F)(F)F | – | young healthy humans, plasma and urine | oral, 50 mg, 0 to 24 h, multiple dosing once daily | – | renal clearance at steady state | 6.5 mL/min |
| c1ccc2c(c1)ccc1ccccc12 | – | polyethylene-water partitioning | PAH compilation | baseline: maximum over minimum K | literature range factor | 5 |
| O=C(Nc1nc2cccc(-c3ccc(CN4CCS(=O)(=O)CC4)cc3)n2n1)C1CC1 | refers to: hypertension | human rheumatoid arthritis patients | oral, 30 mg once daily, 4 weeks, regardless of relatedness | – | treatment-emergent adverse events | 5.9% |

Excerpt of the above:
| SMILES | test | test system | setting | scale | endpoint | result |
| --- | --- | --- | --- | --- | --- | --- |
| Cc1c(C(=O)Nc2ccc(N3C[C@@H](C)O[C@@H](C)C3)nc2)cccc1-c1ccc(OC(F)(F)F)cc1 | PK model | mouse | oral, 40 mg/kg/day | – | plasma-to-tumour rate constant | 0.0076 h⁻¹ |
| Cc1ccc(Sc2ccccc2N2CCNCC2)c(C)c1 | – | healthy adult men | oral, 10 mg single, 10 day | – | abdominal distension | 0% |
| c1ccc2c(c1)-c1cccc3c1c-2cc1ccccc13 | – | polyethylene-water partitioning | PAH compilation | baseline: maximum over minimum K | literature range factor | 5 |
| CCOC(=O)[C@H](CCc1ccccc1)N[C@@H](C)C(=O)N1[C@H](C(=O)O)C[C@H]2CCCC[C@@H]21 | – | processed human plasma | 30 pg/mL, 48 h, 4 °C | baseline: nominal | autosampler stability | 103 ± 9.5% |
| Cc1ccc(C(=O)N(CCCN)C(c2nc3snc(C)c3c(=O)n2Cc2ccccc2)C(C)C)cc1 (stereo not drawn) | – | human patients | intravenous, 10 mg/day | – | grade ≥3 hypokalemia patients | 33% |
